Assay results pooled from the literature.
Numbers after ± are the reported error.

SMILES	assay	test system	setting	scale	endpoint	result
CCCC[C@H](NC(=O)CCOCCOCCNC(=O)CN1CCN(CC(=O)O)CCN(CC(=O)O)CCN(CC(=O)O)CC1)C(=O)N[C@H]1CC(=O)NCCCC[C@@H](C(N)=O)NC(=O)[C@H](Cc2c[nH]c3ccccc23)NC(=O)[C@H](CCCNC(=N)N)NC(=O)[C@@H](Cc2ccccc2)NC(=O)[C@H](Cc2c[nH]cn2)NC1=O [gallium-68 labelled]	–	C57BL/6J mice male B16-F10 tumour, blood	1 h post injection, unblocked	–	tissue uptake	0.5 ± 0.2 %ID/g
[3H]c1sc(C)nc1C=C(C)C1CC2C(CCCC(C)C(O)C(C)C(=O)C(C)(C)C(O)CC(=O)O1)N2CCO (centres unmarked)	LC-MS/MS	CD2F1 mice tumour-bearing, kidney	intravenous, 2.2 nmol/kg, 6 h	–	tissue concentration	2630 ± 130 ng/g
COc1cc(C(=O)NCCOCCOCCOCCNC(=O)c2ccc([18F])nc2)ccc1NC(=O)C1NC(CC(C)(C)C)C(C#N)(c2ccc(Cl)cc2F)C1c1cccc(Cl)c1F (centres unmarked)	–	athymic male mice, HepG2 xenograft, large intestine	4 h	–	tissue uptake	16.9 ± 1.45 %ID/g
COc1ccc(C)cc1NC(=O)OC1CC2CCCC(C1)N2Cc1ccc(CC[18F])cc1 (centres unmarked)	–	BALB/c mice, EMT6 tumour, lung	30 min	–	tissue uptake	16.3 ± 1.14 %ID/g
CCCC[C@H](NC(=O)CN1CCC(NC(=O)CN2CCC(NC(=O)CN3CCN(CC(=O)O)CCN(CC(=O)O)CCN(CC(=O)O)CC3)CC2)CC1)C(=O)N[C@H]1CC(=O)NCCCC[C@@H](C(N)=O)NC(=O)[C@H](Cc2c[nH]c3ccccc23)NC(=O)[C@H](CCCNC(=N)N)NC(=O)[C@@H](Cc2ccccc2)NC(=O)[C@H](Cc2c[nH]cn2)NC1=O [gallium-68 labelled]	–	C57BL/6J mice male B16-F10 tumour, thyroid	1 h post injection, unblocked	–	tissue uptake	0.7 ± 0.3 %ID/g
NC(=O)[C@@H](CCCCNC(=O)CNC(=O)CCC(=O)NCCc1c[nH]cn1)NC(=O)[C@@H](Cc1ccc(O)cc1)NC(=O)[C@@H](CCCCNC(=O)CNC(=O)CCC(=O)NCCc1c[nH]cn1)NC(=O)Cc1ccc(CN2CCN(CC(=O)O)CCN(CC(=O)O)CC2)cc1 [fluorine-18 labelled]	–	tumour-bearing nude mice	intravenous, 3 h, TF2 pretargeting	baseline: tumour over liver	tissue ratio	189 ± 43
C[C@]12CC[C@H](OCC[18F])C[C@H]1CC[C@@H]1[C@@H]2CC[C@]2(C)[C@@H](c3ccc(=O)oc3)CC[C@]12O	micro-PET	BALB/c nude mice, SMMC-7721 xenograft, liver	intravenous, 7.4 MBq, 60 min	–	tissue uptake	15.8 ± 2.75 %ID/g
C/C=C/C=C/C/C=C/CCCCCCCc1cccc(O)c1O	–	female Kunming mice, tumour-bearing, liver	intravenous, 10 mg/kg, 2 h	–	tissue concentration	22800 ± 2650 ng/g

For quick reference, copied from above:
SMILES	assay	test system	setting	scale	endpoint	result
NC(=O)[C@@H](CCCCNC(=O)CNC(=O)CCC(=O)NCCc1c[nH]cn1)NC(=O)[C@@H](Cc1ccc(O)cc1)NC(=O)[C@@H](CCCCNC(=O)CNC(=O)CCC(=O)NCCc1c[nH]cn1)NC(=O)Cc1ccc(CN2CCN(CC(=O)O)CCN(CC(=O)O)CC2)cc1 [fluorine-18 labelled]	–	tumour-bearing nude mice	intravenous, 3 h, TF2 pretargeting	baseline: tumour over liver	tissue ratio	189 ± 43
